# Results pooled from the literature.
# Protocols differ between the studies behind these lines. Several values in a cell are separate wells, animals, samples, runs or records. ± gives the spread as reported.
SMILES,organism,test,test system,conditions,how to read,quantity,value
CC[C@H](C)[C@@H]1NC(=O)[C@H](CO)NC(=O)CC(CCCCN)NC(=O)[C@@H]2CSSC[C@@H](C(=O)N[C@@H](Cc3ccc(O)cc3)C(N)=O)NC(=O)[C@H](CCCCN)NC(=O)[C@@H]3CSSC[C@H](NC(=O)[C@H](CCCNC(=N)N)NC(=O)CC(CC(C)C)NC(=O)[C@H](CC(=O)O)NC(=O)[C@H](CC(=O)O)NC(=O)[C@H](CCC(=O)O)NC(=O)[C@H](CC(N)=O)NC(=O)[C@H](Cc4c[nH]c5ccccc45)NC(=O)[C@@H]4CCCN4C(=O)CNC(=O)[C@H](CC(N)=O)NC(=O)[C@@H](NC(=O)CNC(=O)[C@H](Cc4ccccc4)NC(=O)CN)CSSC[C@H](NC(=O)[C@H](Cc4ccc(O)cc4)NC(=O)CNC(=O)CNC(=O)[C@H](CCCCN)NC(=O)[C@H](Cc4ccc(O)cc4)NC(=O)CNC(=O)[C@H](CCCCN)NC1=O)C(=O)N[C@@H](C)C(=O)N[C@@H](CCCCN)C(=O)NCC(=O)NCC(=O)N[C@@H](Cc1ccccc1)C(=O)N[C@@H](C(C)C)C(=O)N3)C(=O)N[C@@H](Cc1c[nH]cn1)C(=O)NC(CC(N)=O)CC(=O)N[C@@H](Cc1c[nH]cn1)C(=O)N2 (some centres unmarked),Streptococcus pneumoniae,,BS-441,"24 h, 37 °C, 99.9% killing",,MBC,4 µM
O[C@]12C=C(c3nccc4c3[nH]c3ccccc34)[C@@H]3CCN(CCCC/C=C\CC1)C[C@@]31C[C@@H]3/C=C\CCCCN3[C@H]12,Cryptococcus neoformans,microbial growth,ATCC90113,,,IC50,7.25 µg/mL
CN(C)c1nc(NCc2ccccc2F)c(/N=N/c2ccc(Cl)cc2)c(N(C)C)n1,Ostrinia furnacalis,leaf dipping,,"200 mg/L, 96 h",,mortality,93.3 ± 11.6%
[O-][N+]1=C(c2ccc(Cl)cc2)C2=NCCCN2c2ccccc21,Clostridioides difficile,microbial growth,,,,MIC90,16 µg/mL
O=S(=O)(c1cccc(-c2ccc3ncnc(Nc4ccc(OCc5cccc(F)c5)c(Cl)c4)c3c2)c1)N1CCCCC1,Trypanosoma cruzi,"intracellular amastigote growth, β-galactosidase CPRG","3T3, Tulahuen, β-galactosidase-expressing",96 h,,EC50,> 50000 nM
CCN(CC)CCO.O=C(O)C(Cl)Cl,Solanum nigrum,herbicidal activity,,"15 mg/mL, 21 days, pre-emergence greenhouse",,inhibition,0%
CC(C)[C@H]1NC(=O)[C@H](Cc2ccccc2)NC(=O)[C@@H](C(C)C)NC(=O)[C@@H](C)NC(=O)[C@H](CO)NC(=O)[C@@H](Cc2c(-c3ccc(-c4ccc(-c5ccccc5)cc4)cc3)[nH]c3ccccc23)NC(=O)[C@@H](C)NC1=O,Mycobacterium marinum,,,,,MIC90,40.4 µM
CCC1(CC)CC(=O)N(C2c3cc(C(=O)NC4c5ccccc5CC4O)ccc3OC2(C)COC)C(=N)N1 (centres unmarked),Plasmodium falciparum,parasite growth,Dd2-NITD609,,,EC50,0.4 ± 0.2 nM
CC[C@H](C)[C@@H]1NC(=O)[C@H](CO)NC(=O)[C@H](CCCCN)NC(=O)[C@@H]2CSSC[C@@H](C(=O)N[C@@H](Cc3ccc(O)cc3)C(N)=O)NC(=O)[C@H](CCCCN)NC(=O)[C@@H]3CSSC[C@H](NC(=O)[C@H](CCCNC(=N)N)NC(=O)[C@H](CC(C)C)NC(=O)[C@H](CC(=O)O)NC(=O)[C@H](CC(=O)O)NC(=O)[C@H](CCC(=O)O)NC(=O)[C@H](CC(N)=O)NC(=O)[C@H](Cc4c[nH]c5ccccc45)NC(=O)[C@@H]4CCCN4C(=O)CNC(=O)[C@H](CC(N)=O)NC(=O)[C@@H](NC(=O)CNC(=O)[C@H](Cc4ccccc4)NC(=O)CN)CSSC[C@H](NC(=O)[C@H](Cc4ccc(O)cc4)NC(=O)CNC(=O)CNC(=O)[C@H](CCCCN)NC(=O)[C@H](Cc4ccc(O)cc4)NC(=O)CNC(=O)[C@H](CCCCN)NC1=O)C(=O)N[C@@H](C)C(=O)N[C@@H](CCCCN)C(=O)NCC(=O)NCC(=O)N[C@@H](Cc1ccccc1)C(=O)N[C@@H](C(C)C)C(=O)N3)C(=O)N[C@@H](Cc1c[nH]cn1)C(=O)N[C@@H](CC(N)=O)C(=O)N[C@@H](Cc1c[nH]cn1)C(=O)N2,Streptococcus pneumoniae,,19F,24 h,,MBC,0.25 µM
COC(=O)C1=CO[C@@H](C)[C@@H]2Cn3ccc4c5ccccc5nc-4c3C[C@H]12,Plasmodium falciparum,"growth, [3H]-hypoxanthine uptake",FCR3,72 h,,IC50,231 ± 79 nM
Cc1cc(C(=O)Nc2nc3cccc(C)c3n2[C@H]2CCCCN(C(=O)/C=C/CN(C)C)C2)ccn1,Trypanosoma brucei brucei,,2T1 CLK1 C215S overexpressing,"0.00114 µM, 72 h",,survival,80.8% and 106% and 94.8% and 102% and 100%
Nc1nc(Nc2ccc(Cl)cc2)nn1S(=O)(=O)c1ccc2ccccc2c1,dengue virus,viral replication,"Huh-7, New Guinea C",,,EC50,> 8700 nM
CC[C@H](C)[C@H](NC(=O)[C@H](CCCCN)NC(=O)[C@H](CCCCN)NC(=O)[C@H](Cc1ccccc1)NC(=O)[C@H](Cc1ccccc1)NC(=O)[C@H](CCCCN)NC(=O)[C@H](CCCCN)NC(=O)[C@H](Cc1ccccc1)NC(=O)[C@H](CCCNC(=N)N)NC(=O)[C@@H](N)CCCCN)C(=O)N[C@@H](CCCCN)C(=O)N[C@@H](CCCCN)C(=O)N[C@@H](CO)C(=O)N[C@H](C(=O)N[C@@H](CCCCN)C(=O)N[C@@H](CCCCN)C(=O)N[C@@H](CCCNC(=N)N)C(=O)N[C@H](C(=O)N[C@@H](CCCCN)C(=O)N[C@@H](CCCCN)C(=O)N[C@@H](CC(C)C)C(=O)N[C@@H](Cc1ccccc1)C(=O)N[C@@H](CCCCN)C(=O)N[C@@H](CCCCN)C(=O)N1CCC[C@H]1C(=O)N[C@@H](CCCNC(=N)N)C(=O)N[C@H](C(=O)N[C@H](C(=O)N1CCC[C@H]1C(=O)N[C@H](C(=O)N[C@@H](CO)C(=O)N[C@H](C(=O)N1CCC[C@H]1C(=O)N[C@@H](Cc1ccccc1)C(=O)O)[C@@H](C)CC)[C@@H](C)CC)[C@@H](C)CC)C(C)C)C(C)C)C(C)C,Escherichia coli,,E25 clinical isolate,20 h,,MBC,8 µg/mL
CC(C)[C@H]1NC(=O)[C@H](Cc2ccccc2)NC(=O)[C@@H](C(C)C)NC(=O)[C@@H](C)NC(=O)[C@H](C)NC(=O)[C@@H](Cc2c(-c3ccc(-c4ccc(-c5ccccc5)cc4)cc3)[nH]c3ccccc23)NC(=O)[C@@H](CO)NC1=O,Mycobacterium marinum,,,,,MIC90,40.4 µM
CC[C@H](C)CCCCC(=O)N[C@@H](CCN)C(=O)N[C@H](C(=O)N[C@@H](CCN)C(=O)N[C@H]1CCNC(=O)[C@H]([C@@H](C)O)NC(=O)[C@H](CCN)NC(=O)[C@H](CCN)NC(=O)[C@H](CC(C)C)NC(=O)[C@@H](CC(C)C)NC(=O)[C@H](CCN)NC1=O)[C@@H](C)O,Escherichia coli,daily serial passaging,ATCC 8739,"highest sub-MIC, 38 days",reference: initial MIC,MIC fold change,1.47
O=C(Oc1cc(OC(=O)c2cc(O)c(O)c(O)c2)c2ccccc2c1)c1cc(O)c(O)c(O)c1,Herpes simplex virus 2,"viral replication, RT-qPCR","Vero, acyclovir-resistant",,,IC50,1970 ± 20 nM
CC(C)[C@H]1NC(=O)[C@H](Cc2ccccc2)NC(=O)[C@@H](C(C)C)NC(=O)[C@@H](C)NC(=O)[C@H](CO)NC(=O)[C@@H](Cc2c(-c3ccc(-c4ccc5ccccc5c4)cc3)[nH]c3ccccc23)NC(=O)[C@@H](CO)NC1=O,Mycobacterium marinum,,,,,MIC90,40.8 µM
CC[C@H](C)[C@H](NC(=O)[C@H](CC(N)=O)NC(=O)[C@H](CC(C)C)NC(=O)[C@@H](NC(=O)[C@@H](N)Cc1ccccc1)[C@@H](C)CC)C(=O)N[C@@H](CC(C)C)C(=O)N[C@@H](CC(=O)O)C(=O)N[C@@H](CCCCN)C(N)=O,Gram-negative bacteria,,,,,geometric mean MIC,256 µM
c1ccc(CCNC2CCCc3c2[nH]c2ccc(C4CCCCC4)cc32)cc1 (centres unmarked),Streptococcus pneumoniae,,,"concentration not given, 10% fetal bovine serum",reference: without serum,MIC fold change,4
CC(C)[C@H]1NC(=O)[C@H](Cc2ccccc2)NC(=O)[C@@H](C(C)C)NC(=O)[C@@H](C)NC(=O)[C@H](CO)NC(=O)[C@@H](Cc2c(-c3ccc(-c4ccc5ccccc5c4)cc3)[nH]c3ccccc23)NC(=O)CNC1=O,Mycobacterium marinum,,,,,MIC90,> 100 µM
CC(C)(C)OC(=O)N1CCN(c2ccc(-c3ccc4ncnc(Nc5ccc(OCc6cccc(F)c6)c(Cl)c5)c4c3)cc2)CC1,Trypanosoma cruzi,intracellular amastigote growth,"NIH 3T3, Tulahuen, β-galactosidase-expressing","10 µM, 96 h",,inhibition,8%
CC[C@H](C)[C@H](NC(=O)[C@H](CCCNC(=N)N)NC(=O)[C@H](CO)NC(=O)[C@H](Cc1ccc(O)cc1)NC(=O)[C@@H](NC(=O)[C@@H](NC(=O)[C@H](C)NC(=O)CNC(=O)[C@H](CCCCN)NC(=O)[C@H](CCCCN)NC(=O)CCNC(=O)CCCCCNC(=O)[C@H](CCCNC(=N)N)NC(=O)CCCCCNC(=O)[C@H](CCCNC(=N)N)NC(=O)[C@H](CCCNC(=N)N)NC(=O)CCCCCNC(=O)[C@H](CCCNC(=N)N)NC(=O)[C@H](CCCNC(=N)N)NC(=O)CCCCCNC(=O)[C@H](CCCNC(=N)N)NC(=O)[C@H](CCCNC(=N)N)NC(=O)CCCCCNC(=O)[C@@H](N)CCCNC(=N)N)C(C)C)[C@@H](C)O)C(=O)N[C@@H](CO)C(=O)NCC(=O)N[C@@H](CCC(N)=O)C(=O)N[C@@H](Cc1ccc(O)cc1)C(=O)N[C@@H](CCCCN)C(=O)O,Escherichia coli,"biofilm formation, crystal violet staining","ATCC 25922, Lennox broth","24 h, 37 °C, polystyrene plate",,MBIC50,12 µM
O=C(O)CN(CC(=O)O)CP(=O)(O)O,Providencia stuartii,,NDM-1 producer,"32 µg/mL, with: meropenem",reference: meropenem alone,fold MIC reduction,128
CN(C)c1nc(NCc2ccc(F)cc2F)c(/N=N/c2ccc(Cl)cc2)c(N(C)C)n1,Ostrinia furnacalis,leaf dipping,,"500 mg/L, 96 h",,mortality,100%
Cc1cc(Cl)cc([S+](C)[O-])c1NC(=O)c1cc(Br)nn1-c1ncccc1Cl (centres unmarked),Spodoptera litura,leaf-dip,third instar larvae,"50 ppm, 48 h",,mortality,46.7%
CC(C)C[C@H](NC(=O)[C@H](CCN)NC(=O)[C@H](CCN)NC(=O)[C@@H](Cc1ccccc1)NC(=O)[C@H](CC(C)C)NC(=O)[C@H](CCN)NC(=O)[C@H](CCN)NC(=O)[C@@H](CCN)NC(=O)CCSCCOC(=O)c1ccccc1)C(N)=O,Acinetobacter calcoaceticus,BHI agar spot plating,,"24 h, 37 °C",,MBC,64 µM
O=S(=O)(c1cccc(-c2ccc3ncnc(Nc4ccc(OCc5cccc(F)c5)c(Cl)c4)c3c2)c1)N1CCCC1,Trypanosoma cruzi,intracellular amastigote growth,"NIH 3T3, Tulahuen, β-galactosidase-expressing","10 µM, 96 h",,inhibition,32%
C#CCN1C(=O)C(CC#C)(C(=O)OCC)Oc2ccccc21 (centres unmarked),Setaria viridis,,greenhouse,"postemergence, 150 g ai/ha, 21 days",,fresh weight inhibition,> 50%
COc1ccc(C2=[N+]([O-])c3ccccc3N3CCN=C23)cc1,Clostridioides difficile,microbial growth,,,,MIC90,0.5 µg/mL

# Some of these lines once more:
SMILES,organism,test,test system,conditions,how to read,quantity,value
CC[C@H](C)CCCCC(=O)N[C@@H](CCN)C(=O)N[C@H](C(=O)N[C@@H](CCN)C(=O)N[C@H]1CCNC(=O)[C@H]([C@@H](C)O)NC(=O)[C@H](CCN)NC(=O)[C@H](CCN)NC(=O)[C@H](CC(C)C)NC(=O)[C@@H](CC(C)C)NC(=O)[C@H](CCN)NC1=O)[C@@H](C)O,Escherichia coli,daily serial passaging,ATCC 8739,"highest sub-MIC, 38 days",reference: initial MIC,MIC fold change,1.47
O=C(Oc1cc(OC(=O)c2cc(O)c(O)c(O)c2)c2ccccc2c1)c1cc(O)c(O)c(O)c1,Herpes simplex virus 2,"viral replication, RT-qPCR","Vero, acyclovir-resistant",,,IC50,1970 ± 20 nM
